Measured values of several laboratories.
Every numbered part comes from another study and shows a few of its results, in no order. “And” joins repeats or separate records; there may be more than shown. Positions count from the first letter of the parent shown.
UniProt O15530, sequence (whole entry, looked up): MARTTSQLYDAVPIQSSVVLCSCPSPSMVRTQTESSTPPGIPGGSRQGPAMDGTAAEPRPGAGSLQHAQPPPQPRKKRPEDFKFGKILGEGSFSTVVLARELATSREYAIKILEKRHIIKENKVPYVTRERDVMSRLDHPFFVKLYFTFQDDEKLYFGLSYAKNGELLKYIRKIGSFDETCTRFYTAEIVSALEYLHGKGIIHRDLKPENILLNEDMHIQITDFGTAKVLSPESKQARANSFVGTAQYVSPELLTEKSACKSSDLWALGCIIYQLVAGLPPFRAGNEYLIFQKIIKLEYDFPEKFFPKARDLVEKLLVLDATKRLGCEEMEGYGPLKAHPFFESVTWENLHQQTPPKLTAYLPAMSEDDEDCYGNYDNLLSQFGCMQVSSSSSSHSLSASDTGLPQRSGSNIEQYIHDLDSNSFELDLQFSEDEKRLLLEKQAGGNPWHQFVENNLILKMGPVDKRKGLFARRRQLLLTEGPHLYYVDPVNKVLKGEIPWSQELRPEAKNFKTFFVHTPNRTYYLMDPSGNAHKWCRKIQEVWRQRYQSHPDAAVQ
UniProt P29597, sequence (whole entry, looked up): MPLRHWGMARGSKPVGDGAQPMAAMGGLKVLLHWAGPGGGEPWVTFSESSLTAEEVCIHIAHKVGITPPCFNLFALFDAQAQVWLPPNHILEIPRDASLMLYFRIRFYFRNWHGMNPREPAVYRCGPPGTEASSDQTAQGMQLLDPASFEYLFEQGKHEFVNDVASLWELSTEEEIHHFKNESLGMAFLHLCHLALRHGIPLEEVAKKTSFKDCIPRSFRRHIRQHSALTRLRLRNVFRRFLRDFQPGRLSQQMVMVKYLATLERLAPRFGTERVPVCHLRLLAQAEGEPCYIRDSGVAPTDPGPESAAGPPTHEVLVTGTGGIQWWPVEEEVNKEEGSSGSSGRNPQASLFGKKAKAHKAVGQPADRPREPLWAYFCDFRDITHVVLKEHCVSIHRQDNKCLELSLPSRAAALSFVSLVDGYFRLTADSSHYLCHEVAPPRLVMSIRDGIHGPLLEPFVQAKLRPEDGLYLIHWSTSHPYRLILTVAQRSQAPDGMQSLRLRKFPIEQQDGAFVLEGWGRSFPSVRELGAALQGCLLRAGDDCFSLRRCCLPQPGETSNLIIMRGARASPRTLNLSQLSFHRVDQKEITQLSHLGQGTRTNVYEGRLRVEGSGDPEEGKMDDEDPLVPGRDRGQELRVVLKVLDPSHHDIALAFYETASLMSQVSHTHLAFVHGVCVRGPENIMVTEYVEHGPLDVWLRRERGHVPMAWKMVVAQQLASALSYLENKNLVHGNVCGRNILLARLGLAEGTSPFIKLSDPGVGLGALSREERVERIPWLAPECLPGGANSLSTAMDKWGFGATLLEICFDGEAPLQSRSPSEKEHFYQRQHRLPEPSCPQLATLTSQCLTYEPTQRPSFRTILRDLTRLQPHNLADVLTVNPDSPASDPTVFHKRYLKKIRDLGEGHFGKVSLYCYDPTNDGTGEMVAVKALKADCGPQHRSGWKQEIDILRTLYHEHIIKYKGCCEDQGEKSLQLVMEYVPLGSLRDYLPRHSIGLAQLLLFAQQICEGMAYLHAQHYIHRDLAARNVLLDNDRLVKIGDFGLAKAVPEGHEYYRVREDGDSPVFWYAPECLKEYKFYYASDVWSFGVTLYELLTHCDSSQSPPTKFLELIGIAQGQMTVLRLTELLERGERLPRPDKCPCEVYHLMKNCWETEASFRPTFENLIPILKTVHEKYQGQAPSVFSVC
UniProt Q00526, sequence (whole entry, looked up): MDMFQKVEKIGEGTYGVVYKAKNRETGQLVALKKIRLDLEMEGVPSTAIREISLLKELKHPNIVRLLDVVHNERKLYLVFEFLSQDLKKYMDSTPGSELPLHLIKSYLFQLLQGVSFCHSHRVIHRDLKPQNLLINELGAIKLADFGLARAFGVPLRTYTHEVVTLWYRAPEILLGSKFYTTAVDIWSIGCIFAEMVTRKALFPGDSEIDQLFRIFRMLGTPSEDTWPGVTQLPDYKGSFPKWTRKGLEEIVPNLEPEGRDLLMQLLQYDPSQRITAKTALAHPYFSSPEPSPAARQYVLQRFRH
UniProt P57058, sequence (whole entry, looked up): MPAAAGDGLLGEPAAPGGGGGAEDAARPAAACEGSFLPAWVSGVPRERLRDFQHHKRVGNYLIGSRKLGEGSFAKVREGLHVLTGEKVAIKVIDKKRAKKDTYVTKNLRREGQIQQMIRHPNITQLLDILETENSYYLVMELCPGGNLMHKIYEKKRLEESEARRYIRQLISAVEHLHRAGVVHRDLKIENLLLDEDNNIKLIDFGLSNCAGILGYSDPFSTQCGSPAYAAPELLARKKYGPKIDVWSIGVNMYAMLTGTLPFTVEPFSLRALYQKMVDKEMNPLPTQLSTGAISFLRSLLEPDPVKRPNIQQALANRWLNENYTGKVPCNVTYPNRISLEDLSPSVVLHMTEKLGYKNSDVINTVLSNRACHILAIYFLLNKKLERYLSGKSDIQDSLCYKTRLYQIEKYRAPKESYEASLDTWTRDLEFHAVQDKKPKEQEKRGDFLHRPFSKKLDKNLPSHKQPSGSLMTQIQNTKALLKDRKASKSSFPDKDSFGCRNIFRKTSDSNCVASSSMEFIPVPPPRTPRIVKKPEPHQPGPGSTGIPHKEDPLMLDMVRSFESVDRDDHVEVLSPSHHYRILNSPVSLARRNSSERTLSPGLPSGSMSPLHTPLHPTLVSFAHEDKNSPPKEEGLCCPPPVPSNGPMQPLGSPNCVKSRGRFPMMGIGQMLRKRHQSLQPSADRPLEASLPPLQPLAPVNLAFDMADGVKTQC
UniProt P80192, sequence (whole entry, looked up): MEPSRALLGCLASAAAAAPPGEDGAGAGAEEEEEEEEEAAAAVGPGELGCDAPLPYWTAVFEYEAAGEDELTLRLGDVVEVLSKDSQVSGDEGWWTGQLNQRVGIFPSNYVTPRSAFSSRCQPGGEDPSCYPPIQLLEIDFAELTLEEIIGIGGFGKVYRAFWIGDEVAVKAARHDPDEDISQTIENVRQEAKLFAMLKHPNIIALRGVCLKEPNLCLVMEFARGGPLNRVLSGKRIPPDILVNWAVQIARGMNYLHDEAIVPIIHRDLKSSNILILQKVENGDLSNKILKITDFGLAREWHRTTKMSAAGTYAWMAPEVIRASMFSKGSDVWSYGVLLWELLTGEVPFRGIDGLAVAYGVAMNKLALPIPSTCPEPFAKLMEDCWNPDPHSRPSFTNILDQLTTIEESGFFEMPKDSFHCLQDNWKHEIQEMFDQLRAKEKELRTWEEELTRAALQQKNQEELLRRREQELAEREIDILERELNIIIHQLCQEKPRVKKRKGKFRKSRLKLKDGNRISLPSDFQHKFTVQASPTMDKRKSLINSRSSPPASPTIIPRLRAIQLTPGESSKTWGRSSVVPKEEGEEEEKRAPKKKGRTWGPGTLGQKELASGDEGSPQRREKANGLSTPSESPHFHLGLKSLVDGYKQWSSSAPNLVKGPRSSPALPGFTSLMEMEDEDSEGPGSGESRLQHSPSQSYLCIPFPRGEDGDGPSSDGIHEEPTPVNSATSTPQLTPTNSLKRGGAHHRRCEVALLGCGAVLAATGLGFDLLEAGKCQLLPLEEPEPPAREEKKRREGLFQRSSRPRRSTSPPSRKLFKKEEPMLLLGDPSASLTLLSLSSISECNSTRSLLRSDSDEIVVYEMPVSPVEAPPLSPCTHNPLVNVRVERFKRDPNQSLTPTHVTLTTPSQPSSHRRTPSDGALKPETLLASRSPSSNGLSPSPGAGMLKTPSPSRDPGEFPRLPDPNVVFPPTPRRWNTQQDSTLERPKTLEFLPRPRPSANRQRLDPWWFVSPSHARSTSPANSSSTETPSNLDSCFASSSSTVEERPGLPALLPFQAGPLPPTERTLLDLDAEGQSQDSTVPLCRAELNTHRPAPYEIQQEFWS
UniProt Q6PHR2, sequence (whole entry, looked up): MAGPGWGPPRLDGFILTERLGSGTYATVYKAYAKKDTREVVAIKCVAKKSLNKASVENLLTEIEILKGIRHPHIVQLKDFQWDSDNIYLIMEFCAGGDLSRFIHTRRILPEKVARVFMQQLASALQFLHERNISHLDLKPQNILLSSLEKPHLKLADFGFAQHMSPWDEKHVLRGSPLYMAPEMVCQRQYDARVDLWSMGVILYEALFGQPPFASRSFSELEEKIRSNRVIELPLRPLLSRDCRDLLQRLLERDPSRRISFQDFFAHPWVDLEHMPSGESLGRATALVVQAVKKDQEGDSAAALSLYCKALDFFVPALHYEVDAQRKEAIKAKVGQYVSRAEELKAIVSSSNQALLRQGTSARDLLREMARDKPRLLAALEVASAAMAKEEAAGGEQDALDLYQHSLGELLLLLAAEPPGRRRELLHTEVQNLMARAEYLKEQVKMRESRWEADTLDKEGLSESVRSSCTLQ
UniProt Q9P1W9, sequence (whole entry, looked up): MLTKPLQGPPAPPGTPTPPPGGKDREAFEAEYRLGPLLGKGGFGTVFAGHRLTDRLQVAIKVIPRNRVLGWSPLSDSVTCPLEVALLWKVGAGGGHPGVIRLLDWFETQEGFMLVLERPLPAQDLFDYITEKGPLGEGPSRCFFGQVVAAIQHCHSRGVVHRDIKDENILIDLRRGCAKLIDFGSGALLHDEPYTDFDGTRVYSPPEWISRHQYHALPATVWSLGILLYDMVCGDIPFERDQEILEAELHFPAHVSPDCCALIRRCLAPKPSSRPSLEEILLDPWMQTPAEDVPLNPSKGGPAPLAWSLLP

Series 1
Host: mouse
Matrix: microsomes or S9
Concentration: 2 µM
Time: 0.5 h
Measurement: remaining compound
C/C=C/C=C/C(=O)N1CCN(C(C)C(N)=O)CC1 (stereo not shown): 70.5%
CC(C)CN1C(=O)C2C3CC4C5(C)CCCC(C)(C(=O)O)C5CCC4(C=C3C(C)C)C2C1=O (stereo not shown): 28.8%
COc1ccc(Cl)cc1NC(=O)c1cc(S(=O)(=O)N2CCc3ccccc32)cn1C: 6.8%
O=c1[nH]c(-c2ccc(F)cc2)c(-c2ccc(F)cc2)c(=O)n1Cc1ccc(Cl)cc1Cl: 77.6%
Cc1cc(C)n(-c2nncn2/N=C/c2cccc3ccccc23)n1: 9.44%

Series 2
Cell line: A-375
Concentration: 100 µM
Time: 36 h
Measurement: viability
C[C@H](CCC(=O)O)[C@H]1CC[C@H]2[C@@H]3[C@H](O)C[C@@H]4C[C@H](O)CC[C@]4(C)[C@H]3C[C@H](O)[C@]12C: 102%
O=C(CCCCCCC(=O)Nc1ccccc1)NO: 11.9%
CN(C)CCC(c1ccc(Cl)cc1)c1ccccn1 (stereo not shown): 106%
Cc1cc(NS(=O)(=O)c2ccc(N)cc2)nc(C)n1: 109%

Series 3
Structure (SMILES): O=C(Nc1ccc(Oc2ccc(F)cc2)cc1)N1CCc2ncccc2[C@H]1c1ccc(F)cc1
Effect on: cell-free assay
Technique: competition with immobilised ligand
Concentration: 1 µM
Measurement: remaining binding
PIK3CG (Homo sapiens, UniProt P48736): 87%
Tyrosine-protein kinase ABL1, phosphorylated (ABL1, Homo sapiens, UniProt P00519, T315I): 85%
NTRK1 (Homo sapiens, UniProt P04629): 85%
MAST1 (Homo sapiens, UniProt Q9Y2H9): 79%
MINK1 (Homo sapiens, UniProt Q8N4C8): 99%
PIM2 (Homo sapiens, UniProt Q9P1W9): 93%
CSK (Homo sapiens, UniProt P41240): 100%
Tyrosine-protein kinase ABL1, phosphorylated (ABL1, Homo sapiens, UniProt P00519, F317L): 86%
TGFBR2 (Homo sapiens, UniProt P37173): 91%
EPHB4 (Homo sapiens, UniProt P54760): 100%
MAP3K9 (Homo sapiens, UniProt P80192): 100%
NEK9 (Homo sapiens, UniProt Q8TD19): 88%
MAPK10 (Homo sapiens, UniProt P53779): 82%
CDK3 (Homo sapiens, UniProt Q00526): 93%
MAPK12 (Homo sapiens, UniProt P53778): 94%
PDPK1 (Homo sapiens, UniProt O15530): 88%
ACVR1 (Homo sapiens, UniProt Q04771): 96%
HUNK (Homo sapiens, UniProt P57058): 99%
Non-receptor tyrosine-protein kinase TYK2, JH2 (TYK2, Homo sapiens, UniProt P29597): 100%
CDK8 (Homo sapiens, UniProt P49336): 95%
MARK2 (Homo sapiens, UniProt Q7KZI7): 82%
PIM3 (Homo sapiens, UniProt Q86V86): 79%

Series 4
Cell line: mouse MPNST tumor cells
Technique: high-content nuclear imaging
Refers to: cell number
Concentration: 10 µM
Time: 12 h
Notes: mean of 2 replicates
Relative to: plate mean
Direction: higher = more cells
Measurement: nuclei count
Cc1ccc2c(=O)c3ccccc3n(CCCN)c2c1C: -4.18 z-score
CC(C)N(CCCNC(=O)Nc1ccc(C(C)(C)C)cc1)C[C@H]1O[C@@H](n2cc(Br)c3c(N)ncnc32)[C@H](O)[C@@H]1O: -1.18 z-score and -0.791 z-score
CCOC(=O)[C@]12CC1/C(=N\O)c1ccccc1O2 (stereo partly shown): -0.0357 z-score
COc1ccc(-c2cnc(NCc3cccc(OC)c3)n2C)cc1: 0.504 z-score

Series 5
Target: CCND1, cyclin fold, Cln2 fusion (human)
Technique: yeast growth competition, sequencing
Matrix: yeast
Notes: strong parent motif
Relative to: not given
Direction: higher = stronger binding
Measurement: normalised enrichment score
Starting sequence: SCAPER docking peptide (human); SNARRSLNFGGST; partner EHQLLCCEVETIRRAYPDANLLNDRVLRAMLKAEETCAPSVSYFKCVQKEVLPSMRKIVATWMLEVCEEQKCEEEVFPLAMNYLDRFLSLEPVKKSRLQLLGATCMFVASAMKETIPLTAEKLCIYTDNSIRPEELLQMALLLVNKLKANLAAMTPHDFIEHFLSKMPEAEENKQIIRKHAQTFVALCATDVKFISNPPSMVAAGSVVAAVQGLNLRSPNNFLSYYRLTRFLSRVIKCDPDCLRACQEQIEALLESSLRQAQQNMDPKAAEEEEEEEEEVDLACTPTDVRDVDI
T13C: 1.2
N8S: 1.74
G10N: 0.263
G11I: 0.943
T13M: 0.996
N8L: -0.0844
G10P: 0.57
R5Y: 0.414

Single results of other studies
COc1ccc(-c2c(Nc3ccccn3)[nH]c3c(C4=CCCCC4)c(-c4ccccc4)nn3c2=O)cc1
percent change from baseline (refers to: S-adenosylmethionine; human, plasma; oral, 200 mg twice daily, cycle 1 day 15): -64.3% and -69.3% and -75.6%

C[C@H]1CC[C@H](n2c3cnccc3c3cnc(Nc4ccc5c(n4)CCN(C(=O)CO)C5)nc32)CC1
receptor occupancy (ULK3 (Homo sapiens, UniProt Q6PHR2); 1 µM): -5.74%

CC(=O)N[C@@H](Cc1c[nH]c2ccccc12)C(=O)N[C@@H](CCC(=O)C=[N+]=[N-])C(=O)OC(C)C
quinolinate level (UPLC-MS/MS; EL4 tumor, C57BL/6 CES1-/- mice, tumor; subcutaneous, 0.3 mg/kg DON equivalent daily, 5 days; higher = more metabolite): 609000 a.u. and 850000 a.u. and 876000 a.u. and 790000 a.u. and 527000 a.u. and 661000 a.u.

Some of these lines once more (series 5):
N8S: 1.74
G10N: 0.263
G11I: 0.943
T13M: 0.996
N8L: -0.0844
G10P: 0.57
R5Y: 0.414
